Results collected from several papers.
Numbers after ± are the reported error.

CCCCSc1nnc(-c2ccc(N)cc2)o1
DPPH radical scavenging (half IC50): 35.2%

N#C/C(=C\c1cn(-c2ccccc2)nc1-c1ccc(F)cc1)c1nc2ccccc2[nH]1
DPPH radical scavenging (100 µg/mL, 45 min): 54.2 ± 1.27%

Cc1ncc([N+](=O)[O-])n1CCOCc1nnc(SCC(=O)c2ccc(Cl)cc2)o1
DPPH scavenging (100 µg/mL, 45 min): 38.1 ± 1.72%

O=C(CN1CCC(O)CC1)Nc1nccs1
DPPH radical scavenging (0.1 mM, 20 min): 25.4%

N#C/C(=C\c1cn(-c2ccccc2)nc1-c1cccc(Br)c1)c1nc2ccccc2[nH]1
DPPH radical scavenging (100 µg/mL, 45 min): 50.9 ± 1.34%

CCCCCCCCCCCCCCc1sc(NC(=O)CCN2CCC(O)CC2)nc1-c1ccccc1
DPPH radical scavenging (0.1 mM, 1 h): 17.7%

Cc1ncc([N+](=O)[O-])n1CCOCc1nnc(SCC(=O)c2ccc(F)cc2)o1
DPPH scavenging (100 µg/mL, 45 min): 67.21 ± 0.29%

CC1OC(OC2C(c3c(O)cc(O)c4c(=O)cc(-c5ccc(O)cc5)oc34)OC(CO)C(O)C2O)C(O)C(O)C1O (stereo not drawn)
DPPH scavenging, TEAC: 169 ± 1.8 µM TE/mM

CCCCCCCCCCCCCCc1sc(NC(=O)CN2CCC(O)CC2)nc1-c1ccccc1
DPPH radical scavenging (0.1 mM, 20 min): 15.6%
